Experimental data gathered from unrelated publications.
Parts stem from different laboratories: compare values within a part only.

Block 1
Target: Prothrombin, mature alpha-thrombin (F2, Homo sapiens, UniProt P00734)
Technique: aptamer microarray, sandwich
Form: DNA with 2'F-ANA
Medium: in vitro
Tested at: 200 nM
Setting: whole 15-mer aptamer, many near background
Added: Cy3 exosite-II aptamer, 400 nM
Direction: higher = stronger binding
Oligonucleotide: GGTTGGTGTGGTTGG
`2'F-ANA at 1 3 6 9 11 12` — result for “mean fluorescence intensity”: 371 a.u.
Under “mean fluorescence intensity”, `2'F-ANA at 1 3 5 6 8 11 12 13 14 15` is recorded as 49.1 a.u.
`2'F-ANA at 1 2 3 7 8 9 10 13 14 15`: “mean fluorescence intensity” 57.4 a.u.
`2'F-ANA at 2 3 4 5 6 9 10 12 14`: “mean fluorescence intensity” 48.4 a.u.
Under “mean fluorescence intensity”, `2'F-ANA at 1 4 5 6 7 12 13 15` is recorded as 77.2 a.u.
For `2'F-ANA at 2 3 4 5 7 11 12`, “mean fluorescence intensity” read 159 a.u.
Under “mean fluorescence intensity”, `2'F-ANA at 1 3 9 10 12 13 15` is recorded as 109 a.u.
`2'F-ANA at 2 4 5 6 8 12 14 15`: “mean fluorescence intensity” 50.5 a.u.
`2'F-ANA at 1 2 4 6 8 9 10 15` — result for “mean fluorescence intensity”: 53.4 a.u.
Under “mean fluorescence intensity”, `2'F-ANA at 2 4 5 11 12 13 15` is recorded as 75.3 a.u.
For `2'F-ANA at 1 2 6 7 9 10 13 15`, “mean fluorescence intensity” read 51 a.u.
For `2'F-ANA at 1 2 3 5 7 8 9 10 12`, “mean fluorescence intensity” read 108 a.u.
`2'F-ANA at 1 3 4 7 10 14`: “mean fluorescence intensity” 49 a.u.
For `2'F-ANA at 1 5 8 9 10 14`, “mean fluorescence intensity” read 44.6 a.u.
`2'F-ANA at 8 11 12`: “mean fluorescence intensity” 838 a.u.
For `2'F-ANA at 1 2 3 5 6 8 14 15`, “mean fluorescence intensity” read 50.1 a.u.
For `2'F-ANA at 3 6 7 10 11 12 13`, “mean fluorescence intensity” read 536 a.u.
For `2'F-ANA at 1 2 5 6 10 11 12 13 14 15`, “mean fluorescence intensity” read 46.2 a.u.
For `2'F-ANA at 1 2 3 5 7 12 13 14`, “mean fluorescence intensity” read 56.7 a.u.
For `2'F-ANA at 1 5 6 7 10`, “mean fluorescence intensity” read 44 a.u.
For `2'F-ANA at 1 3 6 7 8 10 11 15`, “mean fluorescence intensity” read 78.5 a.u.
`2'F-ANA at 1 2 5 8 9 10 11`: “mean fluorescence intensity” 47.2 a.u.
`2'F-ANA at 3 6 8 12`: “mean fluorescence intensity” 1460 a.u.
For `2'F-ANA at 2 3 4 7 9 12 14 15`, “mean fluorescence intensity” read 334 a.u.
`2'F-ANA at 1 2 3 5 6 7 8 10 11 12 13 14`: “mean fluorescence intensity” 54.9 a.u.

Block 2
Target: Histone acetyltransferase KAT6A, winged helix 1, GST fusion (KAT6A, Homo sapiens, UniProt Q92794, residues 1-85)
Technique: protein binding microarray
Form: double-stranded DNA, one strand shown
Medium: in vitro
Tested at: not given
Setting: 8-mer, flanks averaged, mean of 2 arrays, mostly near background
Relative to: not given
Direction: higher = stronger binding
Construct (chain): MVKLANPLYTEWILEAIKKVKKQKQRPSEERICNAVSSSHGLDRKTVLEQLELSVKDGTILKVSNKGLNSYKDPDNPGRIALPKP
With `ACATGTAC` the E-score was -0.0263.
With `GATTAGAC` the E-score was -0.0532.
For `GTGAATCA`, the E-score was -0.148.
With `AGGACTGA` the E-score was -0.169.
The E-score of `ATCAGATA` is reported as -0.141.
With `TCTACCAA` the E-score was -0.154.
With `AGCCTGCA` the E-score was -0.118.
For `AGCAATAG`, the E-score was -0.0679.
`CACTATTC` has an E-score of 0.066.
For `AAATCATC`, the E-score was -0.304.
With `ACACCAGA` the E-score was -0.331.
With `CTAGTACA` the E-score was -0.0891.
`GCCATAAA` has an E-score of -0.0922.
For `AGCACCGG`, the E-score was 0.198.
`GAATGGCC` gave an E-score of 0.0708.
`CGCATCTC` gave an E-score of 0.217.
`AACTCGTG` gave an E-score of -0.134.
For `CCCAAGGG`, the E-score was -0.0762.
For `CTAGAAGA`, the E-score was -0.224.
For `ATGGACCG`, the E-score was 0.00688.
`ACGCGCCT` has an E-score of 0.298.
With `AAATGTCG` the E-score was -0.0562.
The E-score of `CGACCAAG` is reported as -0.0869.
For `ATCGGTGG`, the E-score was -0.00651.
The E-score of `ATCTAGCC` is reported as 0.022.

Block 3
Target: Ras GTPase-activating protein-binding protein 1, RRM domain (G3BP1, Homo sapiens, UniProt Q13283)
Chain of UniProt Q13283 (whole entry, looked up): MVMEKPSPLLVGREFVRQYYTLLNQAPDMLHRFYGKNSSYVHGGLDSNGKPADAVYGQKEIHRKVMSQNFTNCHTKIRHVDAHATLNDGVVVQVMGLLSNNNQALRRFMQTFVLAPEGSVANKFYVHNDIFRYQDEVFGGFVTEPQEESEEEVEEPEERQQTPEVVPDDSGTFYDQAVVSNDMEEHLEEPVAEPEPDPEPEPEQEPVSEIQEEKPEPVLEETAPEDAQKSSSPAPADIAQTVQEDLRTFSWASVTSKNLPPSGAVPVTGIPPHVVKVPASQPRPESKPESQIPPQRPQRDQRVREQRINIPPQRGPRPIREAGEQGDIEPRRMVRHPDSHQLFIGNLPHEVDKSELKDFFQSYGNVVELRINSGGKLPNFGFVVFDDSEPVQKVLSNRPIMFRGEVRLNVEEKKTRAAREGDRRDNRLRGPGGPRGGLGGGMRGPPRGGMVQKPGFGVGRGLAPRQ
Technique: RNA Bind-n-Seq
Form: RNA
Medium: in vitro
Tested at: 1 µM
Setting: whole 134-nt RNA, ends assumed
Added: 150 mM KCl
Relative to: input library
Direction: higher = stronger binding
`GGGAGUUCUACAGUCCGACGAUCAAGUCCUGUGCUACACAUCGUAUGUACCGAAUCGGGGUUUUGGUUUUGGGGUUUUGGAAAGUAUUAUGUUACGCCGUUCGGAUCUGCACUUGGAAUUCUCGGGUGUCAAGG` gave a log2 enrichment of -0.233.
For `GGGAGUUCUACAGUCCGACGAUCUCCUCAAGUCCUGUGCUACACAUCGUAUGUACCGAAUCGGGGCGGCGGGCGGAAAGUAUUAUGUUACGCCGUUCGGAUCUGCACUUCCAGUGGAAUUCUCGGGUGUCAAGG`, the log2 enrichment was -0.175.
With `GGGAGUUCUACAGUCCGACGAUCUUCCUCAAGUCCUGUGCUACACAUCGUAUGUACCGAAUCGGGUGGUGGUGGAAAGUAUUAUGUUACGCCGUUCGGAUCUGCACUUCCAGCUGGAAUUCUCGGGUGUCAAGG` the log2 enrichment was -0.21.
`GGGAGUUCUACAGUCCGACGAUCUUAAGUUGAAGGAGCGCUACCGCAACGUGCUGGACACCAUGUUCGAGCUGCUGCCCCGGAUGGCCAGGUACUGCCAGCCCCCACCCUGGCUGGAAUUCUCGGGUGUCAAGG` gave a log2 enrichment of -0.424.
`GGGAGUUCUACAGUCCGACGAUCUUGGACUAUGGAUCAGGUACUGUGCUCAGCAUCAGAAAAUGGGAUGACAAUGAACAGAGUAACAGGACUAUAUUUCUGAAAAAGGAUGAAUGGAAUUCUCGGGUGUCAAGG` has a log2 enrichment of -0.136.
The log2 enrichment of `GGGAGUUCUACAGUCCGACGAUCCACAGACAACACGCACCCACACAGACACAGAGGGAAGGGGUUGGGAUGGGGACAGGGUGCACAGAAAGGCGGGGUAGGACCCCAGCCCCUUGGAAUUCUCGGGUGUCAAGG` is reported as -0.066.
For `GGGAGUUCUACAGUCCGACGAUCUCAAGUCCUGUGCUACACAUCGUAUGUACCGAAUCGGGGAGGGGAGGGGUGGGGAAAGUAUUAUGUUACGCCGUUCGGAUCUGCACUUCCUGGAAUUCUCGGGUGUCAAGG`, the log2 enrichment was 1.
`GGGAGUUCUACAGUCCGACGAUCUCAAGUCCUGUGCUACACAUCGUAUGUACCGAAUCGGGGCCCGGGCCCGGCCCGGAAAGUAUUAUGUUACGCCGUUCGGAUCUGCACUUCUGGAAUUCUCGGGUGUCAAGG` gave a log2 enrichment of -0.708.
The log2 enrichment of `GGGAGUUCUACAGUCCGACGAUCUUCCUUUCCGUUGUGUGUUUUAAAGGUGUGUGCCCUCUUCCUGAUUCUGGAGAAAAAUGCCGGUCCGGAAGCAAGGUGAGAGUUUAUUCCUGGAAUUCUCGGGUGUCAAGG` is reported as -0.101.

Block 4
Target: RNA binding protein fox-1 homolog 2, RRM domain, GST-SBP tag (RBFOX2, Homo sapiens, UniProt O43251-10, residues 100-194)
Technique: RNA Bind-n-Seq
Form: RNA
Medium: in vitro
Tested at: 365 nM
Setting: natural RNA segment, single round, ends assumed
Relative to: no-protein control
Direction: higher = stronger binding
Construct (chain): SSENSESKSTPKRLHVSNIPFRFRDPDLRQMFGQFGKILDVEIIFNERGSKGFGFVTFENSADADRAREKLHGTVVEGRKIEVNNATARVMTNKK
Under “RBNS enrichment (R)”, `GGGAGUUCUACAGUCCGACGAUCGGACUCUGCCUCGGGAUCUGAUGAUAAAGGAGGGAAUUCCCACCUCGUCACAGCUCCAGUCUCUCACAUAGUCCUUGGAUUCUGUGCCAUCUGAGUAACUGCUCUUGGUGUGGAAUUCUCGGGUGCCAA` is recorded as 0.207.
`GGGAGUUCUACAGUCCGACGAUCGGGUGGGACUCUUAUUUUGGGUAGCCAUUUAUUGACUUCACCUUUUUGCCAAGGACGUUUGUCUCAAGGGAAAAGCAGUUUUCUGUGGGGCUUAUUAAAGGAAUGUUGGUUGGAAUUCUCGGGUGCCAA`: “RBNS enrichment (R)” 0.697.
Under “RBNS enrichment (R)”, `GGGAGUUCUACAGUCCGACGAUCUCUUGCUCUGUGGAAUUUUGUGCUUACUACUGUAUAGUGCAUGUGGCUUAGGUUACCCUAGCUGGUUUUGUCCGUGUAAACAUUGAAAGUAUUAUAUUUUUAUAGAAAUGUGGAAUUCUCGGGUGCCAA` is recorded as 1.47.
Under “RBNS enrichment (R)”, `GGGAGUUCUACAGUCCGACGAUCUUUAAUUUCAGCUACUGUGAAUUCUUUCGAUCAGUCCUUUGCUUUUUUAAAAAAUCUUUUCCAUCGUGUUAAAAAGAAAAUUAGCUAUUAGGAGAUAUUAAAAGAUUGAUUGGAAUUCUCGGGUGCCAA` is recorded as 0.577.
For `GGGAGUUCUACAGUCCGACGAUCUUUUUGUUGUUGUCUUGGCAGUUUUACUGAACCCUUUGCAUAAAGAACAAAAUAAAAGCUCGGCAUUGUAAUUUUUUUAAUGGACAAGUCUUAUGGAUACGAAGGGUACAUGGAAUUCUCGGGUGCCAA`, “RBNS enrichment (R)” read 1.27.
Under “RBNS enrichment (R)”, `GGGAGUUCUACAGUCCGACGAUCCAUUGAAAGUAGUGCUGUAAAUAUUCUGCCAUAGGAAUACUGUCUACAUGCUUUCUCAUUCAAGAAUUCGUCAUCACGCAUCACAGGCCGCGUCUUUGACGGUGGGUGUCUGGAAUUCUCGGGUGCCAA` is recorded as 0.234.
For `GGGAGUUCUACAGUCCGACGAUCCCCCGAGGCCCAAAGAUAAACUGCUACAAUGCUCCAGAACAAUCUUUUCUCUCCUCCCCAGAGGCCCCAUGGGAUGCCGCGUGCUGUUGGGUUUGGGCUAAGAUCUAAGAUGGAAUUCUCGGGUGCCAA`, “RBNS enrichment (R)” read 0.491.
`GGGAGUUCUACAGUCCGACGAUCUAGAACUAAAAUGCUCUCUGUACUCUAGUCUCCUGCCUCCUCAGCUCUGCAAGUAGUUUAGUAGGAAUGAAGUGGAAGUCCAGGCUUGGAUUGCCUAACUACACUGCUAAUGGAAUUCUCGGGUGCCAA`: “RBNS enrichment (R)” 2.2.
`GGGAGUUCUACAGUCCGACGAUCCUUGAACCAGGGAGUCAGAGGUUGCGGUGAGCCGACAUCACGCCACUGCACUCCAGCCUGGCAACAGAGCAAGACUCCGUCUCAAAAAAGUGAAAAGAGAUUCAACCAAGUGGAAUUCUCGGGUGCCAA` — result for “RBNS enrichment (R)”: 0.347.
`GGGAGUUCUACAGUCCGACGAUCGCCUAAAAGUUAGUUAAUAGUUACUUUGGUUUAACCUAUACACAAUGAUUAAGUGCAUUUAAUAUUGGUAAUUUAAUGAAAACCAUUCCUUGCCCAAUGGAUGUAUAAAUUGGAAUUCUCGGGUGCCAA` — result for “RBNS enrichment (R)”: 0.523.
For `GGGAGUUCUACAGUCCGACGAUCCUAGUUAAUCGUUAAGUUGACAAUGAGAGAAUUCUCAAGUUCAUACCUGGCAGCAGGCUCCCACUGAUCUUCCCCUUACAGACAGAUAACAGACAUUUCAGUUUUACCGUUGGAAUUCUCGGGUGCCAA`, “RBNS enrichment (R)” read 0.684.
Under “RBNS enrichment (R)”, `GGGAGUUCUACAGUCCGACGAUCCACCCCUCUUCCCAGGCCUGACUUCUGAGUAGGACCCUGGGUCAGGGCUAAGUGUUGAAUUUACCCUUCCUGGUUAACACCUGUUUUGUUGGUUUUUUUAUUAUUAUUAUUGGAAUUCUCGGGUGCCAA` is recorded as 0.777.

A few entries again (block 2):
For `AGCAATAG`, the E-score was -0.0679.
`CACTATTC` has an E-score of 0.066.
For `AAATCATC`, the E-score was -0.304.
With `ACACCAGA` the E-score was -0.331.
With `CTAGTACA` the E-score was -0.0891.
`GCCATAAA` has an E-score of -0.0922.
For `AGCACCGG`, the E-score was 0.198.
`GAATGGCC` gave an E-score of 0.0708.
`CGCATCTC` gave an E-score of 0.217.
`AACTCGTG` gave an E-score of -0.134.
For `CCCAAGGG`, the E-score was -0.0762.
